Measured values collected from several papers.
± marks the error that the study gave.
CYP2C9: Cytochrome P450 2C9 (CYP2C9, Homo sapiens, UniProt P11712)
UniProt P11712, sequence (whole entry, looked up): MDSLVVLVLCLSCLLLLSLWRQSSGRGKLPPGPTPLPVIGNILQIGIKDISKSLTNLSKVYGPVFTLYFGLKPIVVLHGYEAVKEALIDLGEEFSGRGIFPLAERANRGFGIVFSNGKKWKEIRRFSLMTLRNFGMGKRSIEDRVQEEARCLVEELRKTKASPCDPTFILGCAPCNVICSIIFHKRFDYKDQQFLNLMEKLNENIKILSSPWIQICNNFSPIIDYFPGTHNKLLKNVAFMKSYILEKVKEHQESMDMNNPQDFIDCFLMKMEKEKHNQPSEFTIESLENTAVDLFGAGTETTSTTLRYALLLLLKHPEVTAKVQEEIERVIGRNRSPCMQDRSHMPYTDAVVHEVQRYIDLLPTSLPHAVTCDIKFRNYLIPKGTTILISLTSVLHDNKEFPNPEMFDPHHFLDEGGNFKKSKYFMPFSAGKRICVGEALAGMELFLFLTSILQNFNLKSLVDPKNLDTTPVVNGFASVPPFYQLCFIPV
CYP2C8: Cytochrome P450 2C8 (CYP2C8, Homo sapiens, UniProt P10632)
ABCB1: ATP-dependent translocase ABCB1 (ABCB1, Homo sapiens, UniProt P08183)
UniProt P08183, sequence (whole entry, looked up): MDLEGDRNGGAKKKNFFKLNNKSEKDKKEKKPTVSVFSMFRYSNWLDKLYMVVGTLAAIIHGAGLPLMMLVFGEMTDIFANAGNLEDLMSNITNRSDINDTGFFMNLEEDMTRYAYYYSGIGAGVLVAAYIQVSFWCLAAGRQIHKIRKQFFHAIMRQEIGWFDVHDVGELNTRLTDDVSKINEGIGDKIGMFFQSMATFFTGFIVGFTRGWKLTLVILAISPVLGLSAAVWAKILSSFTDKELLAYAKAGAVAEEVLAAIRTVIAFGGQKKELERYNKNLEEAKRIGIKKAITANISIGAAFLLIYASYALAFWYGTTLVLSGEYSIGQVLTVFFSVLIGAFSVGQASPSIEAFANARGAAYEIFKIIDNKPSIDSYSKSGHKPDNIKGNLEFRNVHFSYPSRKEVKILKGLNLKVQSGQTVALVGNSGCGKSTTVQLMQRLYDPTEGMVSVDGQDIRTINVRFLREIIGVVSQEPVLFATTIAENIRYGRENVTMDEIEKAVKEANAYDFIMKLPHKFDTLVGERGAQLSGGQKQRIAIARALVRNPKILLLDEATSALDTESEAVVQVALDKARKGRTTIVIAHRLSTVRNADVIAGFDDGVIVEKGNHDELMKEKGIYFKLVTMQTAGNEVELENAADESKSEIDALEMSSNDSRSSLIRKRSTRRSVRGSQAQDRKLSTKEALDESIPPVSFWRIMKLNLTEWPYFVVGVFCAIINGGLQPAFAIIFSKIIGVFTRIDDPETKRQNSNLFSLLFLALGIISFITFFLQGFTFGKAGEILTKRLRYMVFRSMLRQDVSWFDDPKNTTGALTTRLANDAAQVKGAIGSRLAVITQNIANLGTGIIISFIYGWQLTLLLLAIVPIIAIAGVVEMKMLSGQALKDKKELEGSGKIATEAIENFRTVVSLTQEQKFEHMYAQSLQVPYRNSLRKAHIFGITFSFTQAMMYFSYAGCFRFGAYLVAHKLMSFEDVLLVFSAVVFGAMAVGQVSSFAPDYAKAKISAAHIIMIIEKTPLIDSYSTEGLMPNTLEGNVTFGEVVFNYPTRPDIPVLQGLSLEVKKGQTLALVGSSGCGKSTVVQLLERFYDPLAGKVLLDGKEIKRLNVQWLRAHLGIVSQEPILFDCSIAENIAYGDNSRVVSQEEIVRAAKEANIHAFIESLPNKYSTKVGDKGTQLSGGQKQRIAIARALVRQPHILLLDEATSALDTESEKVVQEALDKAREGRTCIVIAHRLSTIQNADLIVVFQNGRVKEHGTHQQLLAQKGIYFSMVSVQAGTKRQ
sspA: Glutamyl endopeptidase (sspA, Staphylococcus aureus, UniProt P0C1U8)
UniProt P0C1U8, sequence (whole entry, looked up): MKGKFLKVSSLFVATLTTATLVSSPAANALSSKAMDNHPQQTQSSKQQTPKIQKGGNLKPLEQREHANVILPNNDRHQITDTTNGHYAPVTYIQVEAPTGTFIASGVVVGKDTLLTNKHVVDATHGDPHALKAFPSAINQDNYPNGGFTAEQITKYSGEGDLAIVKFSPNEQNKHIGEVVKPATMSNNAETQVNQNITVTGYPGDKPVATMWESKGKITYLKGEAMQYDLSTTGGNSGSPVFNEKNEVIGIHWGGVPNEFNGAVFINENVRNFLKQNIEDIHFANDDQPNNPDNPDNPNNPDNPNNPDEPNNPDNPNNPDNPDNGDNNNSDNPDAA
UniProt Q06520, sequence (whole entry, looked up): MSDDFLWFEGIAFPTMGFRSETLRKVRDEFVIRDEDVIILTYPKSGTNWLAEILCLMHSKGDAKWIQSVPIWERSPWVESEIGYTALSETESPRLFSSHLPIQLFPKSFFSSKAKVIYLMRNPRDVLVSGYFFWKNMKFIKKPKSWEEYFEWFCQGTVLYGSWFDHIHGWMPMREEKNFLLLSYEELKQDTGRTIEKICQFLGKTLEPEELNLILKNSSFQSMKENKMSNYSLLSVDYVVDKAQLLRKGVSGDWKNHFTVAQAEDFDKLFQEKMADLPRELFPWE
UniProt O89049, sequence (whole entry, looked up): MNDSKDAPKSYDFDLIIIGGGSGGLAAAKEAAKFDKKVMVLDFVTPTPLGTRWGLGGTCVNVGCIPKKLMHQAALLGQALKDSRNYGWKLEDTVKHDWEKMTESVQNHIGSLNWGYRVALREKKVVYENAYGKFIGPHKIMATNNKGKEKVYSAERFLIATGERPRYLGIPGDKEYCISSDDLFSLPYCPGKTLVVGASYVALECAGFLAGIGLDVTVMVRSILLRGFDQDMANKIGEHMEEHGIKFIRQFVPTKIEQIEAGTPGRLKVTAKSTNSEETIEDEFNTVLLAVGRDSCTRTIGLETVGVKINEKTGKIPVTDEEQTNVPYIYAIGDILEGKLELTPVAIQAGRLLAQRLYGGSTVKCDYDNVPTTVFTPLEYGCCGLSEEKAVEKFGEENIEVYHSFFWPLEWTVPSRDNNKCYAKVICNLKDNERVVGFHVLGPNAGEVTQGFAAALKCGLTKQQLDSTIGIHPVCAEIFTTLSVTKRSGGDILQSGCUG
UniProt P61073, sequence (whole entry, looked up): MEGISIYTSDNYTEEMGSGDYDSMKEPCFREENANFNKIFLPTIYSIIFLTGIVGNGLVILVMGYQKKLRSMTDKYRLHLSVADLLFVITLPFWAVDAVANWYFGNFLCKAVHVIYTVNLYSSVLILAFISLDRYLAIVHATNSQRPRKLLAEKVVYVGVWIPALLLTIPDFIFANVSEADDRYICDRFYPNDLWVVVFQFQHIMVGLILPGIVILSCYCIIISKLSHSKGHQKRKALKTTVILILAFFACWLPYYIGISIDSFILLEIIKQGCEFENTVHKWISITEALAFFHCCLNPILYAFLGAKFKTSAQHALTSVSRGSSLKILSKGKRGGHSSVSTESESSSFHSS

| Structure (SMILES) | tested on | test | test system | conditions | scale | endpoint | result |
| --- | --- | --- | --- | --- | --- | --- | --- |
| CC(C)(O)c1ccccc1CC[C@H](c1cccc(/C=C/c2ccc3ccc(Cl)cc3n2)c1)[S+]([O-])CC1(CC(=O)O)CC1 (some centres unmarked) | CYP2C9 | inhibitor | human liver microsomes | 10 µM, pH 7.4, together with: diclofenac | – | inhibition | 76.5% |
| Cc1ccc2nc(C)c(C(=O)NCc3ccc(C(F)(F)F)cc3)n2c1 | CYP2C8 | inhibitor | – | – | – | IC50 | > 20 µM |
| C[C@]12CC[C@H](O)CC1CCC1C2[C@H](O)C(=O)[C@]2(C)[C@@H](c3ccc(=O)oc3)CC[C@]12O (some centres unmarked) | Sulfotransferase 2A1 (SULT2A1, Homo sapiens, UniProt Q06520) | substrate | human intestine cytosol | pH 7.4 | – | sulfation rate | 16.4 pmol/min/mg protein |
| CC[C@@H]1CN2CCc3c([nH]c4cccc(OC)c34)[C@@H]2C[C@@H]1/C(=C\OC)C(=O)OC | CYP2C9 | recombinant enzyme metabolism | – | 2 µM, 60 min | – | remaining compound | 99% |
| CNC(=O)Oc1cc(C)c(S(C)(=O)=O)c(C)c1 | CYP2C8 | – | human liver microsomes | 10 µM, pH 7.4, together with: paclitaxel | – | inhibition | < 0% |
| CCn1c(-c2ccc(-c3ccc(F)cc3)cc2)c(-c2ccc(-c3ccc(F)cc3)cc2)n(CC)c1=[Se+][Au-][P+](CC)(CC)CC.Cl | Thioredoxin reductase 1, cytoplasmic (Txnrd1, Rattus norvegicus, UniProt O89049) | enzyme activity, inhibitor | – | – | – | IC50 | 0.0166 µM |
| Cc1cn2c(C(=O)NCc3ccc(C(F)(F)F)cc3)c(C)nc2s1 | CYP2C8 | inhibitor | – | – | – | IC50 | > 20 µM |
| CC(C)(O)c1ccccc1CC[C@H](c1cccc(/C=C/c2ccc3ccc(Cl)cc3n2)c1)S(=O)(=O)CC1(CC(=O)O)CC1 | CYP2C8 | – | human liver microsomes | 10 µM, pH 7.4, together with: paclitaxel | – | inhibition | 96.5% |
| NCCCC[C@H](NC(=O)[C@H](Cc1ccc(O)cc1)NC(=O)[C@H](CCCCN)NC(=O)[C@H](Cc1c[nH]c2ccccc12)NC(=O)[C@H](Cc1ccccc1)NC(=O)[C@H](Cc1ccccc1)NC(=O)Cc1ccc(-c2ccccc2)cc1)C(=O)NCC(=O)N[C@@H](Cc1c[nH]cn1)C(=O)N1CCC[C@H]1C(=O)NCC(=O)NCC(=O)N1CCC[C@H]1C(=O)N[C@@H](CCC(N)=O)C(=O)N[C@@H](CC(=O)O)C(=O)N[C@@H](CC(=O)O)C(=O)N[C@@H](CC(=O)O)C(=O)N[C@@H](CC(=O)O)C(=O)N[C@@H](CC(=O)O)C(=O)N[C@@H](CC(=O)O)C(=O)O | cathepsin K (human, recombinant) | substrate, LC-MS | – | 64 µM, pH 5.5, 37 °C, 0.1% DMSO | – | half-life | 2.29 h |
| CNC(=O)Oc1cc(C)c([S+](C)[O-])c(C)c1 (centres unmarked) | CYP2C9 | inhibitor | human liver microsomes | 2 µM, pH 7.4, together with: diclofenac | – | inhibition | < 0% |
| CC[C@H](C)[C@H](NC(=O)[C@H](CCCCN)NC(=O)[C@H](CCC(=O)O)NC(=O)CNC(=O)CNC(=O)[C@H](CCCCN)NC(=O)[C@H](CCCNC(=N)N)NC(=O)[C@H](CC(C)C)NC(=O)[C@H](CC(C)C)NC(=O)CN)C(=O)NCC(=O)N[C@@H](CCC(=O)O)C(=O)N[C@@H](CCCCN)C(=O)N[C@@H](CC(C)C)C(=O)N[C@@H](CCCCN)C(=O)N[C@@H](CCCCN)C(=O)N[C@H](C(=O)NCC(=O)N[C@@H](CCC(N)=O)C(=O)N[C@@H](CCCCN)C(=O)N[C@H](C(=O)N[C@@H](CCCCN)C(=O)N[C@@H](CC(N)=O)C(=O)N[C@@H](Cc1ccccc1)C(=O)N[C@@H](Cc1ccccc1)C(=O)N[C@@H](CCC(N)=O)C(=O)N[C@@H](CCCCN)C(=O)N[C@@H](CC(C)C)C(=O)N[C@H](C(=O)N1CCC[C@H]1C(=O)N[C@@H](CCC(N)=O)C(=O)N1CCC[C@H]1C(=O)N[C@@H](CCC(=O)O)C(=O)N[C@@H](CCC(N)=O)C(=O)O)C(C)C)[C@@H](C)CC)[C@@H](C)CC | Escherichia coli OmpT | substrate | E. coli BL21 expressing ompT, PBS | 2 µg/µL, room temperature | – | time to cleavage | ≤ 15 min |
| CC(=O)N1CCC[C@H]1C(=O)N[C@@H](CC(C)C)C(=O)N[C@@H](Cc1c[nH]cn1)C(=O)N[C@@H](CO)C(=O)N[C@H](C(N)=O)[C@@H](C)CP(=O)(OCOC(=O)C(C)(C)C)OCOC(=O)C(C)(C)C | pig liver esterase | substrate | – | 200 µM, 8 h, pH 7.4, 37 °C | – | conversion to free peptide | 20% |
| N#Cc1c(O)c(Cl)c(Cl)c(C#N)c1Cl | ABCB1 | inhibitor | HEK293 expressing target | concentration not given, together with: [3H]digoxin | – | intracellular accumulation | no effect |
| O=C1Cc2cc(CCN3CCN(C4=NS(=O)(=O)c5ccccc54)CC3)c(Cl)cc2N1 | CYP2C8 | – | human liver microsomes | 10 µM, pH 7.4, together with: paclitaxel | – | inhibition | < 0% |
| CC(C)C[C@H](NC(=O)[C@H](CCCCN)NC(=O)[C@H](CCCNC(=N)N)NC(=O)[C@@H](CC(C)C)NC(=O)[C@H](Cc1c[nH]c2ccccc12)NC(=O)[C@H](CC(=O)O)NC(=O)[C@H](CCCCN)NC(=O)[C@@H](CC(C)C)NC(=O)[C@H](CCCNC(=N)N)NC(=O)[C@H](CCC(N)=O)NC(=O)[C@@H](NC(=O)[C@@H](CC(C)C)NC(=O)[C@H](CCCNC(=N)N)NC(=O)[C@H](CCCCN)NC(=O)[C@H](Cc1ccc(C(C)(C)C)cc1)NC(=O)CN)C(C)C)C(=O)N[C@H](C(N)=O)C(C)C | sspA | substrate, SDS-PAGE | – | 24 h, pH 7.4, 37 °C | – | proteolytic stability | stable |
| [11CH3]Oc1ccc(Cc2ccncc2)nc1-c1cccc([N+](=O)[O-])c1 | PDE4D | – | rhesus monkey | dose not given, together with: rolipram 1.0 mg/kg i.v. preblock | – | time to peak brain radioactivity | 2.25 min |
| CN1C(=O)[C@@H](Cc2ccc(O)cc2)NC(=O)CNC(=O)[C@H](Cc2ccc3ccccc3c2)NC(=O)[C@H](CCCNC(=N)N)NC(=O)[C@H]1CCCNC(=O)c1ccc(CNC(=O)CN2CCN(CC(=O)O)CCN(CC(=O)O)CCN(CC(=O)O)CC2)cc1 [gallium-68 labelled] | C-X-C chemokine receptor type 4 (CXCR4, Homo sapiens, UniProt P61073) | PET | human, brain background | – | – | SUVmean | 0.03 |
| C=CC(=O)Nc1cc(Nc2nccc(-c3cn(C)c4ccccc34)n2)c(OCC(F)(F)F)nc1N(C)CCN(C)C | CYP2C8 | enzyme activity, inhibitor | human, liver microsomes | 1 µM | – | activity vs control | 101% |
| CN[C@](C)(C[18F])C(=O)O | DU-145 tumour model | – | host not given, tumour | 30 min, tumour-bearing | – | tracer uptake | 4.4 %ID/g |
| CC(C)C[C@H](NC(=O)[C@H](CCCCN)NC(=O)[C@H](CCCNC(=N)N)NC(=O)[C@@H](CC(C)C)NC(=O)[C@H](Cc1ccc(C(C)(C)C)cc1)NC(=O)[C@H](CC(=O)O)NC(=O)[C@H](CCCCN)NC(=O)[C@@H](CC(C)C)NC(=O)[C@H](CCCNC(=N)N)NC(=O)[C@H](CCC(N)=O)NC(=O)[C@@H](NC(=O)[C@@H](CC(C)C)NC(=O)[C@H](CCCNC(=N)N)NC(=O)[C@H](CCCCN)NC(=O)[C@H](Cc1ccc(C(C)(C)C)cc1)NC(=O)CN)C(C)C)C(=O)N[C@H](C(N)=O)C(C)C | sspA | substrate, SDS-PAGE | – | 24 h, pH 7.4, 37 °C | – | proteolytic stability | stable |
| CCCCCC1=C(NCC)C(=O)C(C/C=C(\C)CCC=C(C)C)=C(O)C1=O | human SLC transporters | transporter uptake | – | concentration not given | – | inhibition | no inhibition |
| CCN(CC)CCOc1ccc(-c2nnn(Cc3ccc(OC)cc3)c2N)cc1 | CYP2C8 | enzyme activity, inhibitor | – | concentration not given | – | inhibition | no inhibition |
| CCCS(=O)(=O)c1ccc2[nH]c(NC(=O)OC)nc2c1 | CYP2C9 | inhibitor | human liver microsomes | 2 µM, pH 7.4, together with: diclofenac | – | inhibition | 6.06% |
| CC(C)C[C@H](NC(=O)[C@H](CC(N)=O)NC(=O)[C@H](CCCNC(=N)N)NC(=O)[C@@H](CC(C)C)NC(=O)[C@H](Cc1ccc(-c2ccccc2)cc1)NC(=O)[C@H](CC(=O)O)NC(=O)[C@H](CCCCN)NC(=O)[C@@H](CC(C)C)NC(=O)[C@H](CCCNC(=N)N)NC(=O)[C@H](CCC(N)=O)NC(=O)[C@@H](NC(=O)[C@@H](CC(C)C)NC(=O)[C@H](CCCNC(=N)N)NC(=O)[C@H](CCCCN)NC(=O)[C@H](Cc1ccc(-c2ccccc2)cc1)NC(=O)CN)C(C)C)C(=O)N[C@H](C(N)=O)C(C)C | sspA | substrate, tricine SDS-PAGE | – | pH 8, 37 °C, together with: peptide:protease 40:1 | – | stability time | ≥ 24 h |
| C=CCc1ccc(O)c(-c2cc(CC=C)cc(O)c2O)c1 | ABCB1 | rhodamine 123 efflux | – | 50 µM | relative to: GF120918 0.5 µM | inhibition | -0.3 ± 2.8% |
| [64Cu+2].c1ccc(CNCc2ccc(CN3CCCNCCNCCCNCC3)cc2)nc1 | CXCR4 | – | NOD/SCID mouse, U87 and U87-stb-CXCR4 xenografts, blood | iv, 90 min, no blocking dose, ex vivo | – | tissue uptake | 0.83 ± 0.24 %ID/g |

Excerpt of the above:
| Structure (SMILES) | tested on | test | test system | conditions | scale | endpoint | result |
| --- | --- | --- | --- | --- | --- | --- | --- |
| [11CH3]Oc1ccc(Cc2ccncc2)nc1-c1cccc([N+](=O)[O-])c1 | PDE4D | – | rhesus monkey | dose not given, together with: rolipram 1.0 mg/kg i.v. preblock | – | time to peak brain radioactivity | 2.25 min |
| CCN(CC)CCOc1ccc(-c2nnn(Cc3ccc(OC)cc3)c2N)cc1 | CYP2C8 | enzyme activity, inhibitor | – | concentration not given | – | inhibition | no inhibition |
